# Published values gathered from unrelated publications.
# T1: itself; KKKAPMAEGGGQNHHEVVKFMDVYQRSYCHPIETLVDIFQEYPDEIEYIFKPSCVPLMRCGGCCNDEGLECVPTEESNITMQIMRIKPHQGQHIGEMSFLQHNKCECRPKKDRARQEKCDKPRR
# T2: itself; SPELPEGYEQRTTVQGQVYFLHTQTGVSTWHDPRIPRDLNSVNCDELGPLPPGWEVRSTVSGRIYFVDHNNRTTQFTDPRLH
# T3: itself; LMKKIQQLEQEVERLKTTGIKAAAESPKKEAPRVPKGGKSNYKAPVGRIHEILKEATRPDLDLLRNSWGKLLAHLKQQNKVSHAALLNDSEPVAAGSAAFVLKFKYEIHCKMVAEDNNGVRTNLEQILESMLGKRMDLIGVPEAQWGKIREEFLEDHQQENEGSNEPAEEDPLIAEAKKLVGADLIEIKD
# T4: itself; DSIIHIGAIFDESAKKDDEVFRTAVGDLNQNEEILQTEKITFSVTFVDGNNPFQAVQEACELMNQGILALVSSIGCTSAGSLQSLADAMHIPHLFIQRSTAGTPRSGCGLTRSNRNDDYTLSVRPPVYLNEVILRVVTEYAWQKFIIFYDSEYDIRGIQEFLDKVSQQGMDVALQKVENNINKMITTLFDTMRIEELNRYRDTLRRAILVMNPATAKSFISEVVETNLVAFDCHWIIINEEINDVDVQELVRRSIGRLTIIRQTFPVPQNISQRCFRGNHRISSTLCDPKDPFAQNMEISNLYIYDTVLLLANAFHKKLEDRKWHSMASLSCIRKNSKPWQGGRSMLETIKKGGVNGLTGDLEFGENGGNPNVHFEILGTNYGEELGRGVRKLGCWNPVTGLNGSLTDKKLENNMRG
# T5: itself; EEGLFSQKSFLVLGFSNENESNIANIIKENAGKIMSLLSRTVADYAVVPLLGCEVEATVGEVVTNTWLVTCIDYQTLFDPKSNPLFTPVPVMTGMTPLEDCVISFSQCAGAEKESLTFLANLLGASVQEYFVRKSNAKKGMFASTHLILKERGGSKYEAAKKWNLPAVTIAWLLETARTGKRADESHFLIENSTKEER
# T6: itself; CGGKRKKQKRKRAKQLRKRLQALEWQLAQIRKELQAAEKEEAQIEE
# T7: itself; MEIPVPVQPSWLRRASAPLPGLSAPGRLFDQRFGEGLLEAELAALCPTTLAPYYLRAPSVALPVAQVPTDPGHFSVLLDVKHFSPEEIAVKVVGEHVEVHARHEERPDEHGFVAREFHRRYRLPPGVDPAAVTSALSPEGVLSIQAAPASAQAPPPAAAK
# B1: VEGFA VEGF121 N-terminal KKK addition (Homo sapiens); chain KKKAPMAEGGGQNHHEVVKFMDVYQRSYCHPIETLVDIFQEYPDEIEYIFKPSCVPLMRCGGCCNDEGLECVPTEESNITMQIMRIKPHQGQHIGEMSFLQHNKCECRPKKDRARQEKCDKPRR
# B2: SMURF1 WW1-WW2 pair (Homo sapiens); chain SPELPEGYEQRTTVQGQVYFLHTQTGVSTWHDPRIPRDLNSVNCDELGPLPPGWEVRSTVSGRIYFVDHNNRTTQFTDPRLH
# B3: dnaX τ domain IIIa (Bacillus subtilis); chain LMKKIQQLEQEVERLKTTGIKAAAESPKKEAPRVPKGGKSNYKAPVGRIHEILKEATRPDLDLLRNSWGKLLAHLKQQNKVSHAALLNDSEPVAAGSAAFVLKFKYEIHCKMVAEDNNGVRTNLEQILESMLGKRMDLIGVPEAQWGKIREEFLEDHQQENEGSNEPAEEDPLIAEAKKLVGADLIEIKD
# B4: Grid2 N-terminal domain (Rattus norvegicus); chain DSIIHIGAIFDESAKKDDEVFRTAVGDLNQNEEILQTEKITFSVTFVDGNNPFQAVQEACELMNQGILALVSSIGCTSAGSLQSLADAMHIPHLFIQRSTAGTPRSGCGLTRSNRNDDYTLSVRPPVYLNEVILRVVTEYAWQKFIIFYDSEYDIRGIQEFLDKVSQQGMDVALQKVENNINKMITTLFDTMRIEELNRYRDTLRRAILVMNPATAKSFISEVVETNLVAFDCHWIIINEEINDVDVQELVRRSIGRLTIIRQTFPVPQNISQRCFRGNHRISSTLCDPKDPFAQNMEISNLYIYDTVLLLANAFHKKLEDRKWHSMASLSCIRKNSKPWQGGRSMLETIKKGGVNGLTGDLEFGENGGNPNVHFEILGTNYGEELGRGVRKLGCWNPVTGLNGSLTDKKLENNMRG
# B5: TOPBP1 BRCT4/5 549-746 (UniProt Q92547); GST fusion; chain EEGLFSQKSFLVLGFSNENESNIANIIKENAGKIMSLLSRTVADYAVVPLLGCEVEATVGEVVTNTWLVTCIDYQTLFDPKSNPLFTPVPVMTGMTPLEDCVISFSQCAGAEKESLTFLANLLGASVQEYFVRKSNAKKGMFASTHLILKERGGSKYEAAKKWNLPAVTIAWLLETARTGKRADESHFLIENSTKEER
# B6: HSPB6 (Homo sapiens, UniProt O14558); PKA-phosphorylated Ser16; chain MEIPVPVQPSWLRRASAPLPGLSAPGRLFDQRFGEGLLEAELAALCPTTLAPYYLRAPSVALPVAQVPTDPGHFSVLLDVKHFSPEEIAVKVVGEHVEVHARHEERPDEHGFVAREFHRRYRLPPGVDPAAVTSALSPEGVLSIQAAPASAQAPPPAAAK
# B7: UGT1A9 (Homo sapiens, UniProt O60656); chain GKLLVVPMDGSHWFTMRSVVEKLILRGHEVVVVMPEVSWQLGRSLNCTVKTYSTSYTLEDLDREFKAFAHAQWKAQVRSIYSLLMGSYNDIFDLFFSNCRSLFKDKKLVEYLKESSFDAVFLDPFDNCGLIVAKYFSLPSVVFARGILCHYLEEGAQCPAPLSYVPRILLGFSDAMTFKERVRNHIMHLEEHLLCHRFFKNALEIASEILQTPVTEYDLYSHTSIWLLRTDFVLDYPKPVMPNMIFIGGINCHQGKPLPMEFEAYINASGEHGIVVFSLGSMVSEIPEKKAMAIADALGKIPQTVLWRYTGTRPSNLANNTILVKWLPQNDLLGHPMTRAFITHAGSHGVYESICNGVPMVMMPLFGDQMDNAKRMETKGAGVTLNVLEMTSEDLENALKAVINDKSYKENIMRLSSLHKDRPVEPLDLAVFWVEFVMRHKGAPHLRPAAHDLTWYQYHSLDVIGFLLAVVLTVAFITFKCCAYGYRKCLGKKGRVKKAHKSKTH
# Chain of UniProt Q8MIP0 (whole entry, looked up): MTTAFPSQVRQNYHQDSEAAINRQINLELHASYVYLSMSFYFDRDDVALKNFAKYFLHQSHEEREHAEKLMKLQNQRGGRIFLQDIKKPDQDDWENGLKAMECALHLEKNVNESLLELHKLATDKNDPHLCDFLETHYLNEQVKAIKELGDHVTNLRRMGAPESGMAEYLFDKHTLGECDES
Substance,tested on,assay,test system,setting,measurement,result
GCN4/KCNMA1 GCN4_LI plus residues 329-end (Homo sapiens),itself,crystal structure,,without Ca2+,subunits per oligomer,4
B1,"T1, itself",mass spectrometry,,,subunits per oligomer,2
Rag1 fragment (Mus musculus),itself,SEC,,,subunits per oligomer,2
"Pkm (Mus musculus, UniProt P52480)",itself,native PAGE,Sirt2-/- mammary tumor cells,not purified,subunits per oligomer,4
B2 (SMURF1 WW1-WW2 pair),"T2, itself",NMR,,,subunits per oligomer,2
HBA1/HBB tetramer (Homo sapiens),itself,native MS,,,subunits per oligomer,4
CRYGS N15D/Q121E/N144D/N54D/Q93E/Q64E/Q17E/Q107E/Q71E (Homo sapiens),itself,SEC-MALS,,,subunits per oligomer,2
THBS1 residues 238-end (Homo sapiens),itself,non-reducing SDS-PAGE immunoblot,cell supernatant,,subunits per oligomer,3
B3 (dnaX τ domain IIIa),"T3, itself",SEC,,,subunits per oligomer,3
nitrile hydratase (Monosiga brevicollis),itself,SEC,,,subunits per oligomer,2
US6/Ighm gD (Herpes simplex virus-2/Mus musculus),itself,SEC,,,subunits per oligomer,18.6
cas-2 fragment V367A (Caenorhabditis elegans),itself,SEC,,,subunits per oligomer,2
PsaA/PsaB/PsaC/PsaD/PsaE/PsaF/PsaK/PsaL trimer (Thermosynechococcus elongatus),itself,AUC,,20 °C,subunits per oligomer,3
BCL11A extended ZnF1,itself,SEC-MALS,,,subunits per oligomer,2
cas-2 fragment V367A/I373A (Caenorhabditis elegans),itself,SEC,,,subunits per oligomer,2
"ferritin apo, 15% H 85% L (Equus caballus, UniProt Q8MIP0)",itself,AUC,,,subunits per oligomer,2
"CD3E (Homo sapiens, UniProt P07766)",itself,two-colour coincidence detection,PM1,,subunits per oligomer,2
cdaA catalytic domain (Lactococcus lactis),itself,SEC,,,subunits per oligomer,2
SHARPIN fragment (Homo sapiens),itself,SEC-MALS,,"pH 7.4, 25 °C, NaCl 150 mM",subunits per oligomer,2
Cx32/Cx43 E1 chimera A43C,itself,cross-linking,,not purified,subunits per oligomer,2
"D1 chaperone full length, aerobic (Sterolibacterium denitrificans)",itself,SEC,,"denaturing, without DTT",subunits per oligomer,2
cas-2 fragment I373A (Caenorhabditis elegans),itself,SEC,,,subunits per oligomer,2
"protein 85-329 (Methylococcus capsulatus, UniProt Q7WZ30)",itself,AUC,,"pH 8.0, 12 °C, NaCl 0.5 M",subunits per oligomer,2
cyc2 fragment (Streptomyces coelicolor),itself,crystal structure,,,subunits per oligomer,2
B4 (Grid2 N-terminal domain),"T4, itself",SEC,,,subunits per oligomer,2
B5 (TOPBP1 BRCT4/5 549-746),"T5, itself",SEC,,,subunits per oligomer,2
CGGKRKKQKRKRAKQLRKRLQALEWQLAQIRKELQAAEKEEAQIEE (APH3 designed coiled coil),"T6, itself",AUC,designed binder,"pH 7.91, 20 °C, NaCl 150 mM, added: TCEP 1 mM",subunits per oligomer,2
"MMP9 proMMP-9, trimer E402A (Homo sapiens)",itself,atomic force microscopy,,,subunits per oligomer,3
gerBC fragment (Bacillus subtilis),itself,crystal structure,,,subunits per oligomer,2
USO1 dimer (Bos taurus),itself,SEC,,,subunits per oligomer,2
proNGF residues -121 to 118 three furin sites to alanine (Mus musculus),itself,SEC,,"pH 7.2, NaCl 150 mM",subunits per oligomer,2
cas-2 fragment (Caenorhabditis elegans),itself,SEC,,,subunits per oligomer,2
B6 (HSPB6),"T7, itself",AF4-MALLS,,,subunits per oligomer,2
B7 (UGT1A9),COc1cccc(-c2oc3ccccc3c(=O)c2O)c1,steady-state kinetics,,"pH 7.4, 37 °C",Km,0.063 µM

# Some of these lines once more:
Substance,tested on,assay,test system,setting,measurement,result
cas-2 fragment V367A (Caenorhabditis elegans),itself,SEC,,,subunits per oligomer,2
cas-2 fragment V367A/I373A (Caenorhabditis elegans),itself,SEC,,,subunits per oligomer,2
USO1 dimer (Bos taurus),itself,SEC,,,subunits per oligomer,2
